Measurements collected from several papers.
A part holds a random share of what one study measured.

Study 1
Target: Interferon regulatory factor 7, full length, phosphomimetic (IRF7, Homo sapiens, UniProt Q92985, residues 1-503, S101K/S471D/S472D/S475D/S476D/S477D/S483D/S484D/S487D)
Chain of UniProt Q92985 (whole entry, unmodified, looked up): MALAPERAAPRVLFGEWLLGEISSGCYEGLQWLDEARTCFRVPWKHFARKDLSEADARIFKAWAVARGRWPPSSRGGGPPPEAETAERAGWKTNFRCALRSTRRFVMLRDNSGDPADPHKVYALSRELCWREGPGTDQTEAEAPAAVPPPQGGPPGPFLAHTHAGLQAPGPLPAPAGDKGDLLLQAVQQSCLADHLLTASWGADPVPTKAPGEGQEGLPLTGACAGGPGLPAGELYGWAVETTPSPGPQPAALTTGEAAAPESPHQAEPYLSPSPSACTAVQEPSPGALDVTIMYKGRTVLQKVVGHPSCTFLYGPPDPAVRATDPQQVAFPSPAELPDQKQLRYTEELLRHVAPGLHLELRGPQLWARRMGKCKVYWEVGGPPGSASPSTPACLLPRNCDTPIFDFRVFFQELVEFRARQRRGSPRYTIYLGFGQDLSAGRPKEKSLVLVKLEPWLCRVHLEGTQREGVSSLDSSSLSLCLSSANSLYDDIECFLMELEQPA
Technique: protein-binding microarray
Form: double-stranded DNA, one strand shown
Medium: in vitro
Tested at: 250 nM
Setting: 60-bp whole probe
Added: salmon DNA 0.4 mg/ml
Baseline: random background probes
Reading: higher = stronger binding
Shared flanks, not repeated: GCCTAGCAC … GTCTTGATTCGCTTGACGCTGCTG
| Sequence | log fluorescence [z-score] |
| --- | --- |
| TTAGATATCGGGTTTCGTTTAGTGCTA | 7.01 |
| TTAGTTCTCCTTATCCTTTAGTGCTAG | 1.09 |
| GACGGTCTCGGTATAGGGACGTGCTAG | 1.56 |
| GACGGACTGCTTCTCCTGAAGTGCTAG | -0.179 |
| TTAGGTATCCTTTTCCGTTAGTGCTAG | 1.59 |
| TGTACTCTCTCCATGTGTTTGTGCTAG | 0.706 |
| TCAGGTTTGAGTCTTCTACTGTGCTAG | -0.0823 |

Study 2
Target: Centromere-binding protein 1, full length, N-terminal tag (CBF1, Saccharomyces cerevisiae, UniProt P17106, residues 1-351)
Chain of UniProt P17106 (whole entry, looked up): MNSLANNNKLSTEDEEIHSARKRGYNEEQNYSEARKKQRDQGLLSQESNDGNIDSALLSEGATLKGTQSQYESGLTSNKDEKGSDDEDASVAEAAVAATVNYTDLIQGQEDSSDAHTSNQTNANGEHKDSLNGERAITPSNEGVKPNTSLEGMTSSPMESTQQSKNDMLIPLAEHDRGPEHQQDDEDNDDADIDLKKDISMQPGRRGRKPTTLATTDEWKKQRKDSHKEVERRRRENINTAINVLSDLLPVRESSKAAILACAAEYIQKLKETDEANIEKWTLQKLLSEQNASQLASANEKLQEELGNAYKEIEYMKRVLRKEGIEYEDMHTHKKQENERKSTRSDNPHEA
Technique: protein-binding microarray
Form: double-stranded DNA, one strand shown
Medium: in vitro
Tested at: 0.8 µM
Setting: whole 60-bp probe, no competitor
Reading: higher = stronger binding
Shared flanks, not repeated: … GTCTTGATTCGCTTGACGCTGCTG
| Sequence | fluorescence intensity [a.u.] |
| --- | --- |
| GAACATCGTCGTCCCAATGACCACACTATTATATAG | 558 |
| CTAATCATACAATACATCAGGACCTGCGTACAATTC | 545 |
| GAAACTATAATGCATGACATGATGAATATGTAGTAG | 627 |
| GAATAGACATCTCGCATGACCACAATGCTGGCTTAG | 605 |
| GAAGTTCACCGTTTTCACGTGCACAAATTCGAGTAG | 4550 |
| GAACCGCTTAATGATCACGCACAAAAAAAAAAATAG | 1730 |
| CTATACCACTGCGCACCCGTGACGCTGCTCCAATTC | 1130 |

Study 3
Target: Histone acetyltransferase KAT6A, winged helix 2, GST fusion (KAT6A, Homo sapiens, UniProt Q92794, residues 85-181)
Technique: protein binding microarray
Form: double-stranded DNA, one strand shown
Medium: in vitro
Tested at: not given
Setting: 8-mer, flanks averaged, mean of 2 arrays, mostly near background
Baseline: not given
Reading: higher = stronger binding
Residues (chain): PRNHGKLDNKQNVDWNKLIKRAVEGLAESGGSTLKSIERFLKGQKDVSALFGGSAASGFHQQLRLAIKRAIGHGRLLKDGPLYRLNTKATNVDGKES
| Sequence | E-score |
| --- | --- |
| ACATGACG | -0.199 |
| GTGATTCA | -0.146 |
| GCAGCCGA | 0.0892 |
| CTGTCTCC | 0.16 |
| CGATAGCC | -0.133 |
| AATCGTAC | -0.19 |
| TAAGATTA | 0.0247 |
| ATTAACTG | -0.0618 |
| AGAAGATG | 0.0825 |
| AATCTGCG | -0.0486 |
| TCCAGTAA | -0.177 |
| CTTATAGA | 0.0148 |
| GATCCGGA | 0.154 |

Single results of other studies
| Molecule | target | assay | test system | conditions | scale | quantity | result |
| --- | --- | --- | --- | --- | --- | --- | --- |
| PhoQ, residues 284 288 289 292 302 303 SASVAL | PhoP, residues 12 14 15 18 19 NHTVL (Escherichia coli, UniProt P23836) | Sort-seq, item: YFP reporter | E. coli | PhoQ-PhoP variant library, added: 10 µM Mg2+ | baseline: high Mg2+ state, higher = stronger signaling | fold induction | 0.823 |
